Experimental data of several laboratories.
Numbered parts are unrelated; each lists some results of a single study. Substitutions count along the parent as printed.

Sample 1
Target: CCNF, cyclin fold, Cln2 fusion (human)
Method: yeast growth competition, sequencing
Sample: yeast
Setting: weak parent motif
Reference: not given
Direction: higher = stronger binding
Starting sequence: MASTL docking peptide (human); PMIAKNLMCELDE; partner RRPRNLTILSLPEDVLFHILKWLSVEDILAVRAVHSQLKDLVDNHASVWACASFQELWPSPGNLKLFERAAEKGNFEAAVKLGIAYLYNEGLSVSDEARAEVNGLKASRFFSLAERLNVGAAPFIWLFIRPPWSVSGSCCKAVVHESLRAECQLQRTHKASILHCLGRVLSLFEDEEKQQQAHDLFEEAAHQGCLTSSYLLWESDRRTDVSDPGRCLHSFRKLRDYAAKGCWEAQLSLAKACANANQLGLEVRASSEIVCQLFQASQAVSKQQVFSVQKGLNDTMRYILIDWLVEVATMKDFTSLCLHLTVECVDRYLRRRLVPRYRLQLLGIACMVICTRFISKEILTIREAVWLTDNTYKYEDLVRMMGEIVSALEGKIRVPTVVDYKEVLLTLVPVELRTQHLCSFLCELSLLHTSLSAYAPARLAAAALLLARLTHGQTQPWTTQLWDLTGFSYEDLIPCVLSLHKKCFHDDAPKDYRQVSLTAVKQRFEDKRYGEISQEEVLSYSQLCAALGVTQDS
Variant	normalised enrichment score
PMIAKNLMCELTE [D12T]	0.42
PMIAKNIMCELDE [L7I]	-0.316
PMIAKNLMCEGDE [L11G]	0.113
PMIAKNLMCELRE [D12R]	0.106
PMIAKKLMCELDE [N6K]	0.587
PMIAKNLMCILDE [E10I]	0.325
PMIAKNLKCELDE [M8K]	0.096
PMIAKNVMCELDE [L7V]	-0.615
PMIAKNLMDELDE [C9D]	-0.117
PMIAKNLMWELDE [C9W]	0.15

Sample 2
Target: Interferon regulatory factor 5, full length, phosphomimetic (IRF5, Homo sapiens, UniProt Q13568-2, residues 1-514, K96S/S451D/S453D/S456D/S462D)
Method: protein-binding microarray
Molecule type: double-stranded DNA, one strand shown
Sample: in vitro
Concentration: 250 nM
Setting: 60-bp whole probe
With: salmon DNA 0.4 mg/ml
Reference: random background probes
Direction: higher = stronger binding
Constant ends, left off below: GCCTAGCAC … GTCTTGATTCGCTTGACGCTGCTG
Oligonucleotide	log fluorescence
GACGGTAACCTTATCCTGACGTGCTAG	-0.275 z-score
TCATGTCTGGAGTCTCTGACTGTGCTA	0.254 z-score
TCAATTATCCTTGTCCCACTGTGCTAG	0.0273 z-score
CCCTTTTCATGCTCTTATATAGTGCTA	0.9 z-score
GATGGTATCCTTTTCCTGACGTGCTAG	0.587 z-score
TCACTCATGGCTTTGTAGATGTGCTAG	-0.324 z-score
GACGGTTTCGGGTATCGAGACGTGCTA	8.17 z-score
TACGGTCTCGGACTGGGGACGTGCTAG	-0.0955 z-score
CTCTACATGGGTATAGAGTAGTGCTAG	-0.0214 z-score
TCATGTCTGATTATTTAACTGTGCTAG	0.649 z-score
TTAGATATCCTTATCCTTTAGTGCTAG	0.234 z-score
GACGGTATCGGTTTCGTGACGTGCTAG	6.95 z-score
TCATTTCAGTTTCTCTTACTGTGCTAG	5.24 z-score
GACGGTTTCGGTATAGGGACGTGCTAG	9.66 z-score
TTCATTTTCTGAATGTCCTCGTGCTAG	1.54 z-score

Sample 3
Target: RNA binding protein fox-1 homolog 2, RRM domain, GST-SBP tag (RBFOX2, Homo sapiens, UniProt O43251-10, residues 100-194)
Method: RNA Bind-n-Seq
Molecule type: RNA
Sample: in vitro
Concentration: 365 nM
Setting: natural RNA segment, single round, ends assumed
Reference: no-protein control
Direction: higher = stronger binding
Constant ends, left off below: GGGAGUUCUACAGUCCGACGAUC … UGGAAUUCUCGGGUGCCAA
Construct (chain): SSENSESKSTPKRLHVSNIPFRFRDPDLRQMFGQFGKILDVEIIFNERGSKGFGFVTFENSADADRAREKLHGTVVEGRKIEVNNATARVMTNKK
Oligonucleotide	RBNS enrichment (R)
GGGGAAGCUGGGCAUCAGUGGCCACAUGGGCAUCAGGGGCUGGCCCCACAGAGACCCCACAGGGCAGUGAGCUCUGUCUUCCCCCACCUGCCUAGCCCAUCAUCUAUCUA	0.218
CUGGGCAGUUAGGUACCCUGGAAGGAGGGGAGGGAACCUCGAUGAAGCCAGUACAACAACAGAAGAGCCCCCCCAGCUGCCAGGGCACCCCAGACCCCCACUCUUCACUG	0.303
AUAAUGGGAAUCUCGGAGUUCGACACCAUAGUGACGUUCAGCGUCCUCUGAAUUGUGCUACAUCAGCGAACAAGUCGGCGCUUGAAUUGGAUUUUGAGGUUAUUUUAACC	0.343
UUUUUACAUCUUUUAUGCACCAAAUUAUAAUGGUCACAUAUGUUUAGCCCGUUGCCACUGUUCGGGAUUCGAUUUGAAACUCAUCACUAGUAUAGAAGUGGCAUAUCCCA	0.421
CAAGCACCCUAUCUUGUGUCCCUCACAAACAAGCUCUUGUCACUUCUUACCGAGUCCAUAGCUUCAUGCCCCUCUCGUGACUUACUGAGGGUCCAGAUGGCUGUCAGGAA	0.346
AGAAAAGGUAGUGGCCGAGCUGGUAUGGGCACAGACAGAUUGCUUUGUUCUUUCAUUUCUCCCAGCACUCACUUUCUGCCUGAGUCCGGUCCAAGGACUUUUACUUUGCG	1.1
CUGUGCCUUGUGUUACUUAAUCAUACAGUAAGCUGACCUGGAAAUGAAUGAAACUAUUACUCCUAAGAAUUACAUUGUAUAGCCCCACAGAUUAAAUUUAAUUAAUUAAU	0.65
UCUACAUCAAAUGCGGCUGAGGCAUUUUACAGUGGUUUGCCAUUAGCGUGUUCAUUCAGAUAAUGUUUUCUUACUAGGAAUUACAAACUUAAAACAUUUUUCAACCUUUA	0.873

Single results of other studies
Molecule	target	test	test system	setting	how to read	endpoint	result
PhoQ, residues 284 288 289 292 302 303 AAQSYM	PhoP, residues 12 14 15 18 19 NQFFI (Escherichia coli, UniProt P23836)	Sort-seq, measured: YFP reporter	E. coli	PhoQ-PhoP variant library, with: 10 µM Mg2+	reference: high Mg2+ state, higher = stronger signaling	fold induction	1.71

A few entries again (sample 3):
Oligonucleotide	RBNS enrichment (R)
UCUACAUCAAAUGCGGCUGAGGCAUUUUACAGUGGUUUGCCAUUAGCGUGUUCAUUCAGAUAAUGUUUUCUUACUAGGAAUUACAAACUUAAAACAUUUUUCAACCUUUA	0.873
GGGGAAGCUGGGCAUCAGUGGCCACAUGGGCAUCAGGGGCUGGCCCCACAGAGACCCCACAGGGCAGUGAGCUCUGUCUUCCCCCACCUGCCUAGCCCAUCAUCUAUCUA	0.218
CUGUGCCUUGUGUUACUUAAUCAUACAGUAAGCUGACCUGGAAAUGAAUGAAACUAUUACUCCUAAGAAUUACAUUGUAUAGCCCCACAGAUUAAAUUUAAUUAAUUAAU	0.65
